Assay results pooled from the literature.
Each line is one published result; not all experiments were run side by side.
Effect on: cell growth or viability

Cc1cc(O)c(-c2ccc(Sc3ccc(Cl)cc3)cc2)c(C)n1  IC50 (HEK293): > 10000 nM
CCNCCCn1c2c(c3cc(OC)c(OC)cc3c1=O)C(=O)c1cc3c(nc1-2)OCO3  IC50 (Kasumi 1; MTS; 72 h): 266 nM
COc1ccc(C#Cc2ccc(-c3c(C)[nH]c(C)c(Cl)c3=O)cc2)cc1  IC50 (HEK293): > 10000 nM
COc1cc2c3c(n(CCCNCCO)c(=O)c2cc1OC)-c1nc2c(cc1C3=O)OCO2  IC50 (TC-71; MTS; 72 h): 197 nM
Cc1[nH]c(C)c(-c2ccc(-c3cccc(OC(F)(F)F)c3)nc2)c(=O)c1Cl  IC50 (HEK293): > 10000 nM
COC(=O)CN=c1scc(-c2ccccc2)n1-c1ccc(C)cc1  IC50 (Panc 02.03; MTT; 72 h): 25700 nM
CCNC(=S)NNC(=O)COc1ccc2c(C)c(CC)c(=O)oc2c1C  IC50 (PC-3; MTT): 351000 nM
COc1cc(Nc2c(C#N)cnc3cc(OCCCN4CCN(C)CC4)c(OC)cc23)c(Cl)cc1Cl  IC50 (MB002; 7 days): 1820 nM
COC(=O)CN=c1scc(-c2ccccc2)n1-c1ccc(Cl)cc1  IC50 (Panc 02.03; MTT; 72 h): 28900 nM
CCCCCCCCCc1c(C)[nH]c2ccccc2c1=O  IC50 (HEK293): > 10000 nM
OCc1ccc(-c2nn(Cc3ccc(Cl)cc3)c3ccccc23)o1  IC50 (RBE; ATP luminescence): 1580 nM
COc1cccc(C=Cc2nc(=O)c3ccccc3o2)c1OC  IC50 (HEK293): > 10000 nM
Cc1nc(Nc2ncc(C(=O)Nc3c(C)cccc3Cl)s2)cc(N2CC[C@H](O)C2)n1  IC50 (HuT78; ATP luminescence; 72 h): > 10000 nM
OCc1ccc(-c2cn(Cc3ccccc3)c3ccccc23)o1  IC50 (RBE; ATP luminescence): 7240 nM
COc1cc2c3c(n(CCCn4ccnc4)c(=O)c2cc1OC)-c1nc2c(cc1C3=O)OCO2  IC50 (RPMI-8226; MTS; 72 h): 481 nM
NCc1ccc(-c2nn(Cc3ccncc3)c3ccccc23)o1  IC50 (RBE; ATP luminescence): 603 nM
Cc1cc2c(F)c(Oc3ncnn4cc(OC[C@@H](C)O)c(C)c34)ccc2[nH]1  IC50 (MB002; 7 days): 4360 nM
Cc1ccccc1Cn1nc(-c2ccc(CO)o2)c2ccccc21  IC50 (RBE; ATP luminescence): 1380 nM
CC(Cl)=CCc1c(C)[nH]c2c(ccc3ccccc32)c1=O  IC50 (HEK293): > 10000 nM
Oc1nc(-c2ccc(C(F)(F)F)cc2)nc2c1CSCC2  IC50 (HD-MB03; 7 days): > 10000 nM
Cc1[nH]c(C)c(-c2ccc(OCCCc3ccccn3)cc2)c(=O)c1Br  IC50 (HEK293): > 10000 nM
CCC(=O)N1CCN(c2ccc(-n3c(=O)ccc4cnc5ccc(-c6cnc7ccccc7c6)cc5c43)cc2C(F)(F)F)CC1  IC50 (HD-MB03; 7 days): 44.2 nM
OCc1ccc(-c2nn(Cc3cccnc3)c3ccccc23)o1  IC50 (RBE; ATP luminescence): 275 nM
CC[C@@H]1C(=O)N(C)c2cnc(Nc3ccc(C(=O)N[C@H]4CC[C@H](N5CCN(CC6CC6)CC5)CC4)cc3OC)nc2N1C(C)C  IC50 (MB002; 7 days): 6.63 nM
CCc1ccc(N=C2C(=O)Nc3ccccc32)cc1  IC50 (L02; MTT; 48 h): > 100000 nM
CCc1c(C)c2ccc(OCc3nnc(S)n3N)c(C)c2oc1=O  IC50 (PC-3; MTT): 117000 nM
OCc1ccc(-c2nn(Cc3ccncc3)c3ccccc23)o1  IC50 (RBE; ATP luminescence): 166 nM
CC(C)C[C@H](NC(=O)[C@H](Cc1ccccc1)NC(=O)c1cnccn1)B(O)O  IC50 (BT-20; ATP luminescence): 38 nM
Cc1[nH]c(C)c(-c2ccc(CCc3cccc(C(F)(F)F)c3)nc2)c(=O)c1Cl  IC50 (HEK293): > 10000 nM
OCc1ccc(-c2nn(CC3CCCCC3)c3ccccc23)o1  IC50 (RBE; ATP luminescence): 16200 nM
COc1cc2c3c(n(CCCN4CCOCC4)c(=O)c2cc1OC)-c1nc2c(cc1C3=O)OCO2  IC50 (Kasumi 1; MTS; 72 h): > 2000 nM
CCC(C(=O)N1C(=O)C(=Nc2ccc(Cl)cc2Br)c2ccccc21)c1ccccc1 (stereo not shown)  IC50 (L02; MTT; 48 h): > 100000 nM
CCCOc1ccc2c(C)c(CC)c(=O)oc2c1C  IC50 (PC-3; MTT): 585000 nM
Cn1cc(-c2cnn3c(N)c(Br)c([C@@H]4CCCNC4)nc23)cn1  IC50 (MB002; 7 days): 274 nM
CC1(C)CCC(CN2CCN(c3ccc(C(=O)NS(=O)(=O)c4ccc(NCC5CCOCC5)c([N+](=O)[O-])c4)c(Oc4cnc5[nH]ccc5c4)c3)CC2)=C(c2ccc(Cl)cc2)C1  IC50 (MINO; ATP luminescence; 48 h): 54 nM
CC[C@@]1(O)C(=O)OCc2c1cc1n(c2=O)Cc2cc3c(CN(C)C)c(O)ccc3nc2-1  IC50 (MB002; 7 days): 167 nM
COc1cc2c3c(n(CCCNC(C)C)c(=O)c2cc1OC)-c1nc2c(cc1C3=O)OCO2  IC50 (TC-71; MTS; 72 h): 153 nM
C=C(F)C(=O)N1CCN(c2nc(OC[C@@H]3CCCN3C)nc3c2CCN(c2cccc4cccc(Cl)c24)C3)C[C@@H]1CC#N  IC50 (NCI-H1573; ATP luminescence): 5240 nM
CCc1c(C)c2ccc(OCC(=O)NNC(=S)Nc3ccccc3)c(C)c2oc1=O  IC50 (PC-3; MTT): 70100 nM
OCn1cncn1  IC50 (SH-SY5Y; MTT; 24 h): 13500 nM
Cc1cccc(Cn2nc(-c3ccc(CO)o3)c3ccccc32)c1  IC50 (RBE; ATP luminescence): 2510 nM
C=CCOc1ccc2c(C)c(CC)c(=O)oc2c1C  IC50 (PC-3; MTT): 855000 nM
Cc1[nH]c2ccccc2c1CCNCc1ccc(/C=C/C(=O)NO)cc1  IC50 (MB002; 7 days): 3.53 nM

Repeated from above:
Cc1cc2c(F)c(Oc3ncnn4cc(OC[C@@H](C)O)c(C)c34)ccc2[nH]1  IC50 (MB002; 7 days): 4360 nM
Cc1ccccc1Cn1nc(-c2ccc(CO)o2)c2ccccc21  IC50 (RBE; ATP luminescence): 1380 nM
CC(Cl)=CCc1c(C)[nH]c2c(ccc3ccccc32)c1=O  IC50 (HEK293): > 10000 nM
Oc1nc(-c2ccc(C(F)(F)F)cc2)nc2c1CSCC2  IC50 (HD-MB03; 7 days): > 10000 nM
Cc1[nH]c(C)c(-c2ccc(OCCCc3ccccn3)cc2)c(=O)c1Br  IC50 (HEK293): > 10000 nM
CCC(=O)N1CCN(c2ccc(-n3c(=O)ccc4cnc5ccc(-c6cnc7ccccc7c6)cc5c43)cc2C(F)(F)F)CC1  IC50 (HD-MB03; 7 days): 44.2 nM
OCc1ccc(-c2nn(Cc3cccnc3)c3ccccc23)o1  IC50 (RBE; ATP luminescence): 275 nM
